Assay results of several laboratories.
Lines come from different studies, so protocols differ.
Target: Pancreatic triacylglycerol lipase (PNLIP, Sus scrofa, UniProt P00591)
Read-out: enzyme activity
Action: inhibitor
Residues used in one study (P00591 1-450): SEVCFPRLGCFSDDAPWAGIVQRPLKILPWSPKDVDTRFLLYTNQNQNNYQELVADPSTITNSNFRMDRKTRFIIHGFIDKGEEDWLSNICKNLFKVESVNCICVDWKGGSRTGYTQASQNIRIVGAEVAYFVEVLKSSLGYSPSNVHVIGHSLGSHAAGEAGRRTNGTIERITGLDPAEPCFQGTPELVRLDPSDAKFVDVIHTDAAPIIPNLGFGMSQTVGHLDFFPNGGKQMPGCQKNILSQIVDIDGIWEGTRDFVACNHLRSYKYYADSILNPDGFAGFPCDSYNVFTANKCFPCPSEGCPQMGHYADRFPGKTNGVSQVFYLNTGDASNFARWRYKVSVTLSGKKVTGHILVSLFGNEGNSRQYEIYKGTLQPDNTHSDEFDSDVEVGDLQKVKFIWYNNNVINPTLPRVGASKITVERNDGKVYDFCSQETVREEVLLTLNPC

`O=C(O[C@@H]1Cc2c(O)cc(O)cc2O[C@@H]1c1ccc(O)cc1)c1cc(O)c(O)c(O)c1` gave an IC50 of 43.9 µM.
For `C=C1CCC(O)C(C)=CCC2C1CC2(C)O` (stereo not drawn), the IC50 was greater than 500 µM (absorbance).
`COc1ccc(/C=C/C(=O)CC(=O)/C=C/c2ccc(OC)cc2)cc1` gave an IC50 of 188 µM (absorbance).
`O=C(O[C@@H]1Cc2c(O)cc(O)cc2O[C@@H]1c1cc(O)c(O)c(O)c1)c1cc(O)c(O)c(O)c1` gave an IC50 of 13.3 µM.
`Cc1cc(O)c(C=O)c2c1C(=O)Oc1c(CO)c(O)c3c(c1O2)C(O)OC3=O` (stereo not drawn) gave an IC50 of 0.182 µM.
The IC50 of `Oc1ccc(CCC(O)CC(O)CCc2ccc(O)cc2)cc1` (stereo not drawn) is reported as 111 µM (absorbance).
For `C=C1CC[C@@H]2O[C@@]2(C)CC[C@H]2[C@H]1C[C@]2(C)C(=O)/C=C/C(C)(O)CO` (stereo partly drawn), the IC50 was 193 µM (absorbance).
`COc1cc(O)c(C(=O)O)c(C2=C(C)C[C@@H](O)C2=O)c1` gave an IC50 of 20.8 µM (fluorescence; pH 8).
`COc1ccc(/C=C/C(=O)CC(=O)/C=C/c2cc(OC)c(OC)c(OC)c2)cc1` gave an IC50 of 169 µM (absorbance).
With `C=C1CC[C@@H]2O[C@@]2(C)CC[C@H]2[C@H]1C[C@]2(C)C(=O)/C=C/C(C)(O)COC(C)=O` (stereo partly drawn) the IC50 was 425 µM (absorbance).
With `O=C(O[C@@H]1Cc2c(O)cc(O)cc2O[C@@H]1c1ccc(O)c(O)c1)c1cc(O)c(O)c(O)c1` the IC50 was 16 µM.
`COc1ccc(/C=C/C(=O)CC(=O)CCc2ccc(OC)c(OC)c2)cc1` gave an IC50 of 82.7 µM (absorbance).

Some of these lines once more:
`COc1ccc(/C=C/C(=O)CC(=O)CCc2ccc(OC)c(OC)c2)cc1` gave an IC50 of 82.7 µM (absorbance).
The IC50 of `Oc1ccc(CCC(O)CC(O)CCc2ccc(O)cc2)cc1` (stereo not drawn) is reported as 111 µM (absorbance).
